Published values collected from several papers.
Compare with care: the assays were run in different laboratories. Values joined by “and” are separate records of one study, mostly repeats; a detail may differ. ± gives the spread as reported.

O=C(c1cc(Cc2n[nH]c(=O)c3ccccc23)ccc1F)N1CCN(C(=O)C2CC2)CC1
Cmax change (human; oral, dose not given, together with: carboplatin): ~20%

CCCS(=O)(=O)N[C@H]1C[C@@H](N(C)c2ncnc3[nH]ccc23)C1
Cmax geometric mean (healthy human, plasma; oral, 100 mg): 520 ng/mL

N[C@@H]1c2cccnc2[C@H](OC(=O)N2CCC(n3c(=O)[nH]c4ncccc43)CC2)CC[C@H]1c1cccc(F)c1F
Cmax change (human, plasma; oral, 75 mg, together with: fluconazole; baseline: compound alone): 1.04 fold

COC(=O)N[C@H](C(=O)N1CCC[C@H]1c1ncc(-c2cc(F)c3c(c2)O[C@@H](c2cnc(C4CC4)s2)n2c-3cc3cc(-c4cnc([C@@H]5CCCN5C(=O)[C@@H](NC(=O)OC)C(C)C)[nH]4)ccc32)[nH]1)C(C)C
Cmax increase (healthy adult humans; oral, dose not given; baseline: low-fat meal over fasted): ~20%

CC(C)(C(=O)N1CCOc2c(C#N)cncc2C1)C(F)F
Cmax dose proportionality ratio (healthy humans, both sexes, plasma; oral, 40 mg single dose, 2-fold dose increase; baseline: 40 mg over 20 mg): 2.31

CC(C)(C#N)c1cc(Cn2cncn2)cc(C(C)(C)C#N)c1
Cmax at steady state (human; 125 mg): 53.7 ng/mL

COC(=O)N[C@@H](C)CNc1nccc(-c2cn(C(C)C)nc2-c2cc(Cl)cc(NS(C)(=O)=O)c2F)n1
Cmax geometric mean ratio (human, plasma; oral, single dose, together with: posaconazole; baseline: compound alone): 168%

COC(=O)N[C@@H](C)CNc1nccc(-c2cn(C(C)C)nc2-c2cc(Cl)cc(NS(C)(=O)=O)c2F)n1
Cmax median (humans, plasma; oral, dose not given, day 14, steady state, together with: binimetinib): 2950 ng/mL

O=C(O)C[C@H](O)C[C@H](O)/C=C/c1c(C2CC2)nc2ccccc2c1-c1ccc(F)cc1
Cmax increase (OATP1B1/1B3 humanised mice, plasma; oral, dose not given, together with: rifampicin 20 mg/kg; baseline: vehicle): 3.45 fold

[H]/N=C(/N)c1ccc(NCc2nc3cc(C(=O)N(CCC(=O)O)c4ccccn4)ccc3n2C)cc1
Cmax increase (healthy human, plasma; oral, dose not given, dabigatran etexilate dosed, together with: vepdegestrant; baseline: alone): 92%

N[C@@H](CC(=O)N1CCn2c(nnc2C(F)(F)F)C1)Cc1cc(F)c(F)cc1F
Cmax divided by body mass index (human, male, plasma; oral, 100 mg single dose): 19.6 ± 6.28 ng/mL

C=CC(=O)NC1CCN(c2ncc3ncnc(Nc4ccc(Oc5ccc6c(c5)ncn6C)c(C)c4)c3n2)CC1
Cmax increase (human, male, plasma; oral, 240 mg, fed; baseline: fasted): ~26%

Cc1cc(Nc2ncnc3ccc(NC4=NC(C)(CO)CO4)cc23)ccc1Oc1ccn2ncnc2c1 (centres unmarked)
Cmax (arithmetic mean) (human, plasma; tucatinib, day 10, together with: rifampin once daily): 105 ng/mL

CC(C)(C)OC[C@@H]1C(=O)NCCN1C(=O)C[C@H](N)Cc1cc(F)c(F)cc1F
Cmax at steady state (healthy humans, plasma; oral, 5 mg once daily, 7 days, alone): 5.61 ± 0.7 ng/mL

Cc1nc(-c2ccc(OCC(C)C)c(C#N)c2)sc1C(=O)O
Cmax reduction (human, plasma; oral, 40 mg, together with: high-fat meal; baseline: fasting): ~35% and 35%

CC(C)c1nc(N(C)S(C)(=O)=O)nc(-c2ccc(F)cc2)c1/C=C/[C@@H](O)C[C@@H](O)CC(=O)O
Cmax decrease (healthy human subjects; oral, 10 mg, together with: fruquintinib 5 mg; baseline: fruquintinib alone): ~16%

N#CCNC(=O)c1ccc(-c2ccnc(Nc3ccc(N4CCOCC4)cc3)n2)cc1
Cmax change (healthy human volunteers, plasma; dose not given, together with: multiple-dose rifampin; baseline: compound alone): no effect

Cl.[2H]C([2H])([2H])CC(=O)c1cnc(NC(=O)C2CC2)cc1Nc1cccc(-c2ncn(C([2H])([2H])[2H])n2)c1OC
Cmax reduction (human, plasma; oral, 25 mg, fed, single dose, liquid formulation; baseline: fasted): ~50%

N#Cc1ccc2c(c1)[C@H]1CCCN(C(=O)c3ccc4[nH]cnc4c3)[C@H]1C2
Cmax at steady state (human, plasma; oral, 240 mg once daily): 14.7 µM

Cc1cc(Nc2ncc(Cl)c(Nc3ccccc3S(=O)(=O)C(C)C)n2)c(OC(C)C)cc1C1CCNCC1
Cmax increase (human, plasma; oral, 450 to 600 mg, cycle 1 day 1): 45%

C[C@@H](Oc1ccc(S(C)(=O)=O)cc1C(=O)N1C[C@@H]2C[C@]2(c2cc(C(F)(F)F)on2)C1)C(F)(F)F
Cmax increase (healthy human volunteers; oral, 10 mg single dose, together with: Meal, high-fat, ~1000 kcal; baseline: fasted state): 18%

C=CC(=O)N1CCC[C@@H](n2c(=O)n(-c3ccc(Oc4ccccc4)cc3)c3c(N)nccc32)C1
Cmax fed/fasted ratio (human; oral, 300 mg; baseline: fed over fasted): 0.71

NC[C@@]1(CC(=O)O)[C@@H]2CC[C@H]3C[C@@H]2[C@@H]1C3
Cmax increase (human, moderate renal impairment, plasma; dose not given; baseline: normal renal function): 13.8%

COc1cc(Nc2c(C#N)cnc3cc(OCCCN4CCN(C)CC4)c(OC)cc23)c(Cl)cc1Cl
Cmax geometric mean ratio (human, severe hepatic impairment, plasma; baseline: normal hepatic function): 152%

CC1(C)CC[C@]2(NC(=O)C(C)(F)F)CC[C@]3(C)[C@H](C(=O)C=C4[C@@]5(C)C=C(C#N)C(=O)C(C)(C)[C@@H]5CC[C@]43C)[C@@H]2C1
Cmax decrease (human; oral, dose not given, together with: efavirenz; baseline: compound alone): 38%

O=C(c1cccnc1-c1ccncc1)N1CCC(O)(Cc2ccccc2)CC1
Cmax at steady state (human, moderate hepatic impairment, plasma; oral, 300 mg): 5170 ng/mL

COc1cc(C(=O)NC2CCN(C)CC2)c(F)cc1Nc1ncc(C(F)(F)F)c(Oc2cccc3c2C(=O)N(C)C3)n1
Cmax steady state (human, Taiwanese, plasma; oral, 200 mg once daily multiple dose, geometric mean): 2.56 µM

CCOc1cc(CC(=O)N[C@@H](CC(C)C)c2ccccc2N2CCCCC2)ccc1C(=O)O
Cmax decrease (human; oral, dose not given, together with: omaveloxolone; baseline: substrate alone): 24%

CC(C)=CCC/C(C)=C/CC/C(C)=C/CC[C@@](C)(O)CCC1=C(C)C(=O)C(C)=C(C)C1=O
Cmax geometric LS mean (healthy human, plasma; oral, 400 mg, single dose, alone): 992 ng/mL

COc1ccc2nc([S@@+]([O-])Cc3ncc(CO)c(OC)c3C)[nH]c2c1
Cmax ratio (human; fluvoxamine plus voriconazole inhibition session; baseline: (R)-OH-omeprazole over compound): 3.4 fold

N#Cc1ccc(C(c2ccc(C#N)cc2)n2cncn2)cc1
Cmax at steady state (human; 125 mg): 150 ng/mL

CO[C@]1(C(=O)N[C@@H](C)c2ccc(-n3cc(F)cn3)nc2)CC[C@H](c2nc(C)cc(Nc3cc(C)[nH]n3)n2)CC1
Cmax increase (human, plasma; oral, 200 mg single dose, together with: high-fat meal; baseline: fasted): 104%

Some of these lines once more:
C[C@@H](Oc1ccc(S(C)(=O)=O)cc1C(=O)N1C[C@@H]2C[C@]2(c2cc(C(F)(F)F)on2)C1)C(F)(F)F
Cmax increase (healthy human volunteers; oral, 10 mg single dose, together with: Meal, high-fat, ~1000 kcal; baseline: fasted state): 18%

C=CC(=O)N1CCC[C@@H](n2c(=O)n(-c3ccc(Oc4ccccc4)cc3)c3c(N)nccc32)C1
Cmax fed/fasted ratio (human; oral, 300 mg; baseline: fed over fasted): 0.71

NC[C@@]1(CC(=O)O)[C@@H]2CC[C@H]3C[C@@H]2[C@@H]1C3
Cmax increase (human, moderate renal impairment, plasma; dose not given; baseline: normal renal function): 13.8%

COc1cc(Nc2c(C#N)cnc3cc(OCCCN4CCN(C)CC4)c(OC)cc23)c(Cl)cc1Cl
Cmax geometric mean ratio (human, severe hepatic impairment, plasma; baseline: normal hepatic function): 152%
